Measurements collected from several papers.
Lines come from different studies, so protocols differ. Numbers after ± are the reported error.

| SMILES | cell line | assay | setting | IC50 [µM] |
| --- | --- | --- | --- | --- |
| O=C(Nc1ccnc(C(F)(F)F)c1)Nc1cccc2c1OC(F)(F)O2 | HFF | cell growth | – | 64 |
| N#CC[C@H](C1CCCC1)n1cc(-c2ncnc3[nH]ccc23)cn1 | PBMC | cytokine release, MSD, refers to: IL-1β | 24 h, with: anti-CD3ε/anti-CD28 | 0.062 |
| C=CC(=O)N1CCC[C@@H](c2ccc(C(N)=O)c3[nH]ccc23)C1 | TMD8 wild-type | calcium flux, FLIPR | 4 h preincubation, with: anti-IgM | > 1 |
| COc1ccc(Oc2ccccc2NC(=O)CNC(=O)c2cccc3ccccc23)cc1 | SK-N-BE(2)-C | cell growth, inhibitor | – | 0.234 |
| CN(Cc1cnc2nc(N)nc(N)c2n1)c1ccc(C(=O)N[C@@H](CCC(=O)O)C(=O)O)cc1 | MTHFR C677T(+/−) SCRIB P1043L(−/−) forebrain tissues | neural rosette emergence | – | 0.0411 |
| C=CC(=O)Nc1cccc(Oc2nc(Nc3ccc(N4CCN(C)CC4)cc3)nc3ccoc23)c1 | TMD8 wild-type | calcium flux, FLIPR | 2 h preincubation, with: anti-IgM | > 1 |
| CCOc1cc([C@@H](CS(C)(=O)=O)N2C(=O)c3cccc(NC(C)=O)c3C2=O)ccc1OC | PBMC | cytokine release, MSD, refers to: IL-1β | 24 h, with: anti-CD3ε/anti-CD28 | 0.072 |
| CC(C)c1cc(Oc2c(Cl)cc(-n3nc(C#N)c(=O)[nH]c3=O)cc2Cl)n[nH]c1=O | LX-2 hepatic stellate cells | collagen production, ELISA, refers to: Col1a1 | 48 h, serum-free, with: 2.5 ng/mL TGF-β1 | > 40 |
| Cc1cc(N2CCc3c(c(C)nn3CC34CCC(NC(=O)[C@@H]5COCCN5)(CC3)CC4)C2)c2cnn(C)c2n1 | human PBMC | qRT-PCR, refers to: IFI27 mRNA | with: ssRNA | 0.0004 |
| CC1(C)CCC2(CC1)N[C@@H](C(=O)N[C@@H]1CC[C@@H](C(N)=O)OC1)[C@H](c1ccnc(Cl)c1F)[C@]21C(=O)Nc2cc(Cl)ccc21 | well-differentiated liposarcoma cells (MDM2 amplified) | cell proliferation, alamarBlue | 72 h | 0.084 |
| C=CC(=O)N1CCC([C@@H]2CCNc3c(C(N)=O)c(-c4ccc(Oc5ccccc5)cc4)nn32)CC1 | TMD8 wild-type | calcium flux, FLIPR | 2 h preincubation, with: anti-IgM | 0.0028 |
| CSc1ccc(C(=O)/C=C/c2cc(C)c(OC(C)(C)C(=O)O)c(C)c2)cc1 | LX-2 hepatic stellate cells | collagen production, ELISA, refers to: Col1a1 | 48 h, serum-free, with: 2.5 ng/mL TGF-β1 | 1.96 ± 0.991 |
| O=C(c1cc(Cc2n[nH]c(=O)c3ccccc23)ccc1F)N1CCN(C(=O)C2CC2)CC1 | HCC1569 | – | – | 0.356 |
| NS(=O)(=O)c1cccc(Cc2c(-c3ccc(F)c(F)c3)[nH]n(-c3nc(C(=O)O)cs3)c2=O)c1 | HEK293T | lactate production | 1 h | > 50 |
| C[C@H]1CN(C2COC2)CCN1c1ccc(Nc2cc(-c3ccnc(N4CCn5c(cc6c5CC(C)(C)C6)C4=O)c3CO)cn(C)c2=O)nc1 | TMD8 wild-type | calcium flux, FLIPR | 1 h preincubation, with: anti-IgM | 0.015 |
| Cc1c(C(=O)O)ccc2c3n(nc12)[C@@H]1[C@H](C3)N(CC2CC2)[C@@]2(C(=O)Nc3cc(Cl)ccc32)[C@H]1c1cccc(Cl)c1F | 4T1 (TP53 mutant) | cell proliferation, alamarBlue | 72 h | 5.58 |
| CC1(C)CCC(CN2CCN(c3ccc(C(=O)NS(=O)(=O)c4ccc(NCC5CCOCC5)c([N+](=O)[O-])c4)c(Oc4cnc5[nH]ccc5c4)c3)CC2)=C(c2ccc(Cl)cc2)C1 | CD56+ NK cells from myeloma patients | cell viability, high-throughput flow cytometry | – | 0.00712 |
| O=C(O)COCC(=O)O | hepatocytes, iPSC-derived, line L1 | cell viability, RealTime-Glo MT | 24 h, differentiation day 23 | 10000 |
| Nc1ccn([C@@H]2O[C@H](CO)[C@@H](O)C2(F)F)c(=O)n1 | Capan-2 | cell viability, MTT | mutant KRAS primary | > 10 |
| NS(=O)(=O)c1ccc(Cc2cn(-c3nc(C(=O)O)cs3)nc2-c2cccc(-c3ccccc3)c2)cc1 | HEK293T | lactate production | 1 h | 10.3 |
| CCCCN1C[C@H](O)[C@@H](O)[C@@H](O)[C@H]1CO | sample D patient fibroblasts | Gb3 level lowering, LC-MS/MS, refers to: Gb3 d18:1/16:0 | 216 h | 8.1 |
| O=C(Nc1c(Cl)cncc1Cl)c1ccc(OC(F)F)c(OCC2CC2)c1 | PBMC | cytokine release, MSD, refers to: IL-4 | 24 h, with: anti-CD3ε/anti-CD28 | 0.065 |
| CCN(CCO)CCCC(C)Nc1ccnc2cc(Cl)ccc12 (stereo not drawn) | human PBMC | IFN-driven gene expression, inhibitor, qRT-PCR, refers to: OASL mRNA | two donors, with: ssRNA | 2.5 ± 1 |
| Cc1c(C)c2c(c(C)c1O)CCC(C)(COc1ccc(CC3SC(=O)NC3=O)cc1)O2 (stereo not drawn) | hepatocytes, iPSC-derived, line L1 | cell viability, RealTime-Glo MT | 24 h, differentiation day 23 | 17 |
| O=C(CNC(=O)c1cccc2ccccc12)Nc1ccccc1Oc1ccc(O)cc1 | SK-N-BE(2)-C | cell growth, inhibitor | – | 0.49 |
| NS(=O)(=O)c1ccc(Cc2c(-c3cccc(-c4ccccc4)c3)[nH]n(-c3nc(C(=O)O)cs3)c2=O)cc1 | HEK293T | lactate production | 1 h | 21 |
| CC(=O)c1c(O)c(C)c(O)c2c1OC1=CC(=O)C(C(C)=O)C(=O)C12C (single isomer, unassigned; (+)) | hepatocytes, iPSC-derived, line L1 | cell viability | 72 h | 5 |
| CC#CC(=O)N1CCC[C@H]1c1nc(-c2ccc(C(=O)Nc3ccccn3)cc2)c2c(N)nccn12 | TMD8 wild-type | calcium flux, FLIPR | 4 h preincubation, with: anti-IgM | 0.01 |
| OCCCN1CC[C@@H]2C[C@H]1c1cc(-c3ccc(C(F)(F)F)cc3)ccc12 | HEK293T | immunocytochemistry, refers to: phospho-eIF2alpha | 2 h | 0.0059 |
| CC(=O)[C@]1(O)Cc2c(O)c3c(c(O)c2[C@@H](O[C@H]2C[C@H](N)[C@H](O)[C@H](C)O2)C1)C(=O)c1ccccc1C3=O | primary human intestinal proliferative cells | EdU incorporation | 48 h | 0.0479 |

A few entries again:
| SMILES | cell line | assay | setting | IC50 [µM] |
| --- | --- | --- | --- | --- |
| Cc1c(C(=O)O)ccc2c3n(nc12)[C@@H]1[C@H](C3)N(CC2CC2)[C@@]2(C(=O)Nc3cc(Cl)ccc32)[C@H]1c1cccc(Cl)c1F | 4T1 (TP53 mutant) | cell proliferation, alamarBlue | 72 h | 5.58 |
| CN(Cc1cnc2nc(N)nc(N)c2n1)c1ccc(C(=O)N[C@@H](CCC(=O)O)C(=O)O)cc1 | MTHFR C677T(+/−) SCRIB P1043L(−/−) forebrain tissues | neural rosette emergence | – | 0.0411 |
| COc1ccc(Oc2ccccc2NC(=O)CNC(=O)c2cccc3ccccc23)cc1 | SK-N-BE(2)-C | cell growth, inhibitor | – | 0.234 |
